# Results from different studies.
# Each line is one published result; not all experiments were run side by side. ± gives the spread as reported.
SMILES,target or system,test,system,conditions,scale,quantity,result
CCN(CC)CC(=O)Nc1cccc(-n2cc(-c3ccc4ccc(-c5cn(-c6cccc(NC(=O)CN(CC)CC)c6)nn5)cc4c3)nn2)c1,RCC4,"PCR angiogenesis array, measured: S1PR1",,"5 x IC50, 4 h, normoxia",relative to: untreated,fold regulation,1.21
CC(=O)[O-].O.O.[O-]c1ccc(Br)cc1C=NCCN1CCOCC1.[Zn+2],,DPPH radical scavenging,,120 µM,,inhibition,26.7%
Nc1ncc(-c2cc(-c3cnn(CC(F)(F)F)c3)ncc2F)nc1C(=O)NC1CNCC(F)C1 (stereo not shown),PIK4CB,KINOMEscan,,1 µM,relative to: DMSO control,remaining binding,100%
CN1CCCNC(=O)c2cccc(c2)C(=O)NCCCN(C)CCCNc2cccc3c2C(=O)c2cccc(c2C3=O)NCCC1,SAS,"RNA-Seq, measured: NUMA1 mRNA",,"1 µM, 6 h",relative to: untreated cells,log2 fold change,-0.607
C=CC(=O)Nc1cccc(Cn2ncc3cnc(Nc4cnn(CCOC)c4)nc32)c1,RIOK2 human,"binding, KINOMEscan",,100 nM,lower = stronger binding,percent of control,67%
COc1cc(O)ccc1CCC(c1ccc(O)cc1)c1cc2c(c(C)c1O)OC(c1ccc(O)cc1)CC2 (mixture of isomers),,,human blood,"30 µM, with: A23187",,PGD2 level,8 ± 6 pg/mL
COC1CN([C@H]2CC[C@H]([C@@]3(C)Oc4c(Cl)cc(C(=O)NCc5c(SC)cc(C)[nH]c5=O)c(C)c4O3)CC2)C1,,"RNA-seq, measured: WNK2","human, whole blood","dose not given, 24 h",relative to: pretreatment baseline,log2 fold change,6.2
Cc1ncsc1-c1ccc(C(C)NC(=O)C2CC(O)CN2C(=O)C(NC(=O)CCCCCCCCCCN2CCCC(Nc3ncc(Cl)c(Nc4ccccc4S(=O)(=O)C(C)C)n3)C2)C(C)(C)C)cc1 (stereo not shown),22Rv1,"RNA-seq, measured: RNF144A mRNA",,concentration not given,relative to: DMSO,log2 fold change,-1.78
CN1CCC[C@]1(C)/C=C/S(=O)(=O)NC(=O)Nc1c2c(cc3c1CCC3)CCC2,,,"human, whole blood ex vivo","100 mg twice daily, day 14, 24 h, multiple ascending dose, with: LPS and ATP",,IL-18 inhibition,93%
CNS(=O)(=O)Nc1nccc(Cc2c(C)c3ccc(Oc4ncccc4F)cc3oc2=O)c1F,WM-115,cell viability,,7 days,,IC50,2.4 nM

# Excerpt of the above:
SMILES,target or system,test,system,conditions,scale,quantity,result
C=CC(=O)Nc1cccc(Cn2ncc3cnc(Nc4cnn(CCOC)c4)nc32)c1,RIOK2 human,"binding, KINOMEscan",,100 nM,lower = stronger binding,percent of control,67%
